Measured values gathered from unrelated publications.
Numbered parts are unrelated; each lists some results of a single study. Substitutions count along the parent as printed.

Sample 1 — technique: universal PBM; molecule type: double-stranded DNA, one strand shown; sample: in vitro; concentration: not given; direction: higher = stronger binding
Target: Sal-like protein 4, full length isoform B (SALL4, Homo sapiens, UniProt Q9UJQ4-2, residues 1-616)
Setting: 8-mer, flanks averaged, mean of replicates
Construct (chain): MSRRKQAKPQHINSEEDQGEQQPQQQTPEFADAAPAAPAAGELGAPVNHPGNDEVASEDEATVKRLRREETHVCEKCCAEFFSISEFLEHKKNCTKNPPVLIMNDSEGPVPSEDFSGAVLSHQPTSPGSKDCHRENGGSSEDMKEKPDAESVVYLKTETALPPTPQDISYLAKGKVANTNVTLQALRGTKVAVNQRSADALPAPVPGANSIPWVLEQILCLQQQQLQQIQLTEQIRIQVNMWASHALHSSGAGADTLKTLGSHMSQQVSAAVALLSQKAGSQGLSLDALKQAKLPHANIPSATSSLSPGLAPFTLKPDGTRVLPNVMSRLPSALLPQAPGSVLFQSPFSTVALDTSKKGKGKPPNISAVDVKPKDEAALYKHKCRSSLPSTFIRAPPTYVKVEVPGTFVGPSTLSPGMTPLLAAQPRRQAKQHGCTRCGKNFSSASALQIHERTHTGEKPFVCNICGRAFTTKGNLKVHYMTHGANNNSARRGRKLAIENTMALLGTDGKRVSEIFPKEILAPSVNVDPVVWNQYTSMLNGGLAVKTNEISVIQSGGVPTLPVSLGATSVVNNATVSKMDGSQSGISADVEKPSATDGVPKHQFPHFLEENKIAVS
The E-score of `CTGCATTA` is reported as -0.00963.
`ACGACGAA` gave an E-score of -0.0566.
`AAAATAAG` gave an E-score of 0.302.
The E-score of `ACGCGACT` is reported as -0.181.
For `ATCAGTAC`, the E-score was 0.158.
The E-score of `ACGAGGAT` is reported as -0.0164.
With `CCCTCTTA` the E-score was 0.00816.
The E-score of `TCCGAAGA` is reported as -0.0216.
The E-score of `AGTTCGTA` is reported as -0.058.
`CCTGCTCC` has an E-score of -0.17.
`GCTAGGCC` has an E-score of -0.246.
The E-score of `ATGTCTGC` is reported as 0.00561.
For `ACTACTCC`, the E-score was -0.029.
`ACCCCGGT` gave an E-score of -0.304.
`GGTTAGAC` gave an E-score of -0.0676.
With `GACCTCAA` the E-score was -0.0469.
The E-score of `CATCTGCG` is reported as -0.0973.
`ACAACGCC` gave an E-score of -0.0154.
The E-score of `AAATCAAG` is reported as 0.127.
`ACCTGCAT` gave an E-score of -0.0209.
For `GAACCCTC`, the E-score was -0.27.
`ACCACACT` gave an E-score of -0.00972.
The E-score of `CAGAGGCA` is reported as -0.0394.
`CGCTACAA` has an E-score of 0.0255.
For `ACATTTAA`, the E-score was 0.24.

Sample 2 — target: CCNA1, cyclin fold, Cln2 fusion (human); technique: yeast growth competition, sequencing; sample: yeast; setting: weak parent motif; relative to: not given; direction: higher = stronger binding
Starting sequence: REV3L docking peptide (human); PPVIIKYIIINRF; partner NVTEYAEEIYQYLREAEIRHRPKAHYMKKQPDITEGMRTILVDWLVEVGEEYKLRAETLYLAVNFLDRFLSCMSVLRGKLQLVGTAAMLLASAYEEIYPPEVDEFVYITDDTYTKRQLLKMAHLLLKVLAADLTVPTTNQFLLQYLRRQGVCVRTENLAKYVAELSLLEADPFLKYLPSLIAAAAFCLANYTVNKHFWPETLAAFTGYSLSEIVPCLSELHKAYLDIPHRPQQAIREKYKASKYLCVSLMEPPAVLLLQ
`PPAIIKYIIINRF [V3A]` — result for “normalised enrichment score”: 0.315.
Under “normalised enrichment score”, `PPVIIKYAIINRF [I8A]` is recorded as -0.2.
Under “normalised enrichment score”, `PPVIIAYIIINRF [K6A]` is recorded as 0.658.
For `PAVIIKYIIINRF [P2A]`, “normalised enrichment score” read -0.0145.
`PPVIIKYIIANRF [I10A]` — result for “normalised enrichment score”: -0.0344.
Under “normalised enrichment score”, `APVIIKYIIINRF [P1A]` is recorded as 0.0761.
`PPVIAKYIIINRF [I5A]`: “normalised enrichment score” -0.339.

Sample 3 — technique: DHFR PCA, deep sequencing; sample: yeast; together with: (+)-ABA 0.39 µM; relative to: wild-type fitted maximum; direction: higher = stronger binding
Target: ABI1, truncated, D143A, DHFR fusion (Arabidopsis thaliana)
Setting: methotrexate growth selection, single substitutions
Starting sequence: PYL1, truncated, DHFR fusion (Arabidopsis thaliana); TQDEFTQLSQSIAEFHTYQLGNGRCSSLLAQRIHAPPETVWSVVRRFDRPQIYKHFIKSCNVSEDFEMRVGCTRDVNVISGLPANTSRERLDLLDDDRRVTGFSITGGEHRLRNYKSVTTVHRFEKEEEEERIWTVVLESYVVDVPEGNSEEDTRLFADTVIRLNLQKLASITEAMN
Under “relative binding score”, `F66P` is recorded as -0.234%.
`K126G` — result for “relative binding score”: 63.1%.
For `C60G`, “relative binding score” read -6.79%.
`E67R`: “relative binding score” 26%.
`S117F` — result for “relative binding score”: -13.3%.
Under “relative binding score”, `L156V` is recorded as 32.9%.
`N22W`: “relative binding score” 19.7%.
`H122S`: “relative binding score” -5.62%.
For `R74T`, “relative binding score” read -8.55%.
For `R24K`, “relative binding score” read 56.7%.
Under “relative binding score”, `R49S` is recorded as 30%.
For `K116L`, “relative binding score” read -3.44%.
`E4A`: “relative binding score” 23.5%.
`R132Q`: “relative binding score” 63.9%.
`L8E` — result for “relative binding score”: 3.29%.
Under “relative binding score”, `A158D` is recorded as -1.08%.
For `F103N`, “relative binding score” read -9.48%.
Under “relative binding score”, `M176W` is recorded as 15.7%.
`R32M` — result for “relative binding score”: 36.8%.
For `E131V`, “relative binding score” read 41.9%.
For `V137R`, “relative binding score” read -8.57%.
`R24L` — result for “relative binding score”: 10.7%.

Sample 4 — technique: RNA Bind-n-Seq; molecule type: RNA; sample: in vitro; concentration: 200 nM; setting: whole 134-nt RNA, ends assumed; together with: 150 mM KCl; relative to: input library; direction: higher = stronger binding
Target: Ras GTPase-activating protein-binding protein 1, full length (G3BP1, Homo sapiens, UniProt Q13283)
Chain of UniProt Q13283 (whole entry, looked up): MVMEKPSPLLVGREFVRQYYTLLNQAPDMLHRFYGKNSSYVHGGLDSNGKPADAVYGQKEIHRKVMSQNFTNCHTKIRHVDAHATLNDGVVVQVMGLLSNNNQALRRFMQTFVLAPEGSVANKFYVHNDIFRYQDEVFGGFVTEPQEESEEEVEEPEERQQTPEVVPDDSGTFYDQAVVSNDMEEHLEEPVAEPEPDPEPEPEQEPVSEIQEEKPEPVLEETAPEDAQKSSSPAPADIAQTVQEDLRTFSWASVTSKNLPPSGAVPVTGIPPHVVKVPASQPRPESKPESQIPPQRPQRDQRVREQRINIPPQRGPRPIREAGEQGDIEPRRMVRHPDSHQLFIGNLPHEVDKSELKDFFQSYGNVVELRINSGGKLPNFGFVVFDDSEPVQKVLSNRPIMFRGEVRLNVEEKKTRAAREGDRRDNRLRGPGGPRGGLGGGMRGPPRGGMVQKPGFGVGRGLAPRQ
For `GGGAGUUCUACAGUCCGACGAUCCCUCAAGUCCUGUGCUACACAUCGUAUGUACCGAAUCGGUGGAAAGGAAAGGAAAGUAUUAUGUUACGCCGUUCGGAUCUGCACUUCCAGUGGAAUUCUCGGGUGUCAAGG`, the log2 enrichment was -0.132.
For `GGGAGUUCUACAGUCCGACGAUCUGGGAGGUGGAUUUUGUUUAUUUUUUUAGCUCAUUUCCAGGGGUGGGAAUUUUUUUUUAAUAUGUGUCAUGAAUAAAGUUGUUUAUGAAAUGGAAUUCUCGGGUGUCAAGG`, the log2 enrichment was 0.139.
For `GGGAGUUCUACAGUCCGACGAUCCACAGACAACACGCACCCAUACAGACACAGAGGGAAGGGGUUGGGAUGGGGACAGGGUGCACAGCAGGGCGGGGUAGGACCCCAGCCCCUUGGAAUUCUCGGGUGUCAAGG`, the log2 enrichment was 2.06.
The log2 enrichment of `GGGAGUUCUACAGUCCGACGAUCAGUCCUGUGCUACACAUCGUAUGUACCGAAUCGGGAAAAGGGGAAAAGGGAAAAGGGGAAAGUAUUAUGUUACGCCGUUCGGAUCUGCACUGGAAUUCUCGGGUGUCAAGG` is reported as 0.204.
`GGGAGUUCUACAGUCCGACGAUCGUCCUGUGCUACACAUCGUAUGUACCGAAUCGGGUUUUUUUGGGAAAGGGUUUUUGGGAAAGUAUUAUGUUACGCCGUUCGGAUCUGCACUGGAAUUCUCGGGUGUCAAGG` gave a log2 enrichment of -0.546.
For `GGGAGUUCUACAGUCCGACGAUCCCUCAAGUCCUGUGCUACACAUCGUAUGUACCGAAUCGGAGGUUUUUGGAGGAAAGUAUUAUGUUACGCCGUUCGGAUCUGCACUUCCAGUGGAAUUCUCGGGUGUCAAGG`, the log2 enrichment was 0.0315.
The log2 enrichment of `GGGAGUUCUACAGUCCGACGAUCCUGUGCUACACAUCGUAUGUACCGAAUCGGGUUUUUUUGGGGUUUUUUUGGGUUUUUUUGGAAAGUAUUAUGUUACGCCGUUCGGAUCUGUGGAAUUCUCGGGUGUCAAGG` is reported as -0.749.
The log2 enrichment of `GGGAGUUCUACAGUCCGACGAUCCAAGUCCUGUGCUACACAUCGUAUGUACCGAAUCGGGCCCCGGGCCCCGGCCCCGGAAAGUAUUAUGUUACGCCGUUCGGAUCUGCACUUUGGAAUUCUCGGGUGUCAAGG` is reported as -0.829.
`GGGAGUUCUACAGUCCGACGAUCGUCCUGUGCUACACAUCGUAUGUACCGAAUCGGGUGGGAAAAAAAGGGUUUUUUUGGGAAAGUAUUAUGUUACGCCGUUCGGAUCUGCACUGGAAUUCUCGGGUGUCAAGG` has a log2 enrichment of -0.424.
With `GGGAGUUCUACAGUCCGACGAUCUCCUGUGCUACACAUCGUAUGUACCGAAUCGGGUUUUUUGGUUUUUUGGGGUUUUUUGGAAAGUAUUAUGUUACGCCGUUCGGAUCUGCAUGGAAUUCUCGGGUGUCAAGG` the log2 enrichment was -0.529.

For quick reference, copied from above (sample 1):
The E-score of `ATGTCTGC` is reported as 0.00561.
For `ACTACTCC`, the E-score was -0.029.
`ACCCCGGT` gave an E-score of -0.304.
`GGTTAGAC` gave an E-score of -0.0676.
With `GACCTCAA` the E-score was -0.0469.
The E-score of `CATCTGCG` is reported as -0.0973.
`ACAACGCC` gave an E-score of -0.0154.
The E-score of `AAATCAAG` is reported as 0.127.
`ACCTGCAT` gave an E-score of -0.0209.
For `GAACCCTC`, the E-score was -0.27.
